Results of several laboratories.
Parts stem from different laboratories: compare values within a part only.

Set 1
Target: RING finger protein unkempt homolog, zinc fingers 1-6, GST-SBP tag (UNK, Homo sapiens, UniProt Q9C0B0, residues 30-357)
UniProt Q9C0B0, sequence (30-357, looked up): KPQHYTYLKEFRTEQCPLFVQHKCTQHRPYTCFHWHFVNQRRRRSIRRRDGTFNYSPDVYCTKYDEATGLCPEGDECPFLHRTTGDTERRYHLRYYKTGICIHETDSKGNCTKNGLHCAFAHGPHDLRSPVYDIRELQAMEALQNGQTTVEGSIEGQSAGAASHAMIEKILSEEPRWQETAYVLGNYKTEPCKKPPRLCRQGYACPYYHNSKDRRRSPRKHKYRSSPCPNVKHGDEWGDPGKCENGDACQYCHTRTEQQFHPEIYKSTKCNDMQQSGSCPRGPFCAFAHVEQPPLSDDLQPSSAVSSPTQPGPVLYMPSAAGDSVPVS
Technique: RNA Bind-n-Seq
Molecule type: RNA
Matrix: in vitro
Concentration: not given
Notes: RNA with constant flanks, human and mouse sites, ends assumed
Reference: input RNA pool
Reading: higher = stronger binding
Quantity: bound/input enrichment
GGGAGUUCUACAGUCCGACGAUCAUCCACAGUCUGAUGGGCAACUUUGAAAACGCUGUGGACUAUUUCCACACAGCUCUUGGUCUCAGGCGAGACGACACAUUUUCUGUUACAAUGCUUGGUCACUGCAUUGAAAUGUACAUCCAACAGAGGAUUGAGCAUCA: 0.138 ratio
GGGAGUUCUACAGUCCGACGAUCUGACAAAAUGUGAUGAGAGCUUCUUGAACCGGUAAACUAGUACAGGUCUGAGAAAGACAUAUUAGAAGAAUCAUUAUACUUCCUUGAAUUAUAUUUAUUUUCAUGUUUCUCUAAUGCAAACAACAGAGGAUUGAGCAUCA: 0.863 ratio
GGGAGUUCUACAGUCCGACGAUCUUUGGAGCUCCUCCUCAUGCUGGUGGUGGCAUUGGGCUGGAAAGGGUGACGAUGCUGUUUUUAGGAUUGCAUAACGUACGCCAGACCUCAAUGUUCCCUCGUGACCCCAAACGACUCACGCAACAGAGGAUUGAGCAUCA: 0.117 ratio
GGGAGUUCUACAGUCCGACGAUCCCUUGGCACUGGCCUCCAGCAAGCCCUGUUCUCUUUGGGGUACAGGGGAACGGGAUGGUUUAGACUUUCCUGCUCAGUGUGUAAAAAAUGUAGCUAAAGCCACUAUUUUUGCUCUCCUUACAACAGAGGAUUGAGCAUCA: 0.208 ratio

Set 2
Target: Histone acetyltransferase KAT6A, both winged helices, GST fusion (KAT6A, Homo sapiens, UniProt Q92794, residues 1-181)
Technique: protein binding microarray
Molecule type: double-stranded DNA, one strand shown
Matrix: in vitro
Concentration: not given
Notes: 8-mer, flanks averaged, mean of 2 arrays, mostly near background
Reference: not given
Reading: higher = stronger binding
Quantity: E-score
Residues (chain): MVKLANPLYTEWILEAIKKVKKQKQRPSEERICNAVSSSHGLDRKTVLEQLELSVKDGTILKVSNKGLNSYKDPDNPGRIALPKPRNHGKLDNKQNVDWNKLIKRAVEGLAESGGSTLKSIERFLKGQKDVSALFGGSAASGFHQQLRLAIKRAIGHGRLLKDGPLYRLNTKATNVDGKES
ACTAGTAC: 0.00884
CGGCCGTA: 0.344
GCTCCAAA: -0.108
AACGAGGC: -0.0815
ACTCAAAG: -0.0419

Set 3
Target: Centromere-binding protein 1, full length, N-terminal tag (CBF1, Saccharomyces cerevisiae, UniProt P17106, residues 1-351)
UniProt P17106, sequence (whole entry, looked up): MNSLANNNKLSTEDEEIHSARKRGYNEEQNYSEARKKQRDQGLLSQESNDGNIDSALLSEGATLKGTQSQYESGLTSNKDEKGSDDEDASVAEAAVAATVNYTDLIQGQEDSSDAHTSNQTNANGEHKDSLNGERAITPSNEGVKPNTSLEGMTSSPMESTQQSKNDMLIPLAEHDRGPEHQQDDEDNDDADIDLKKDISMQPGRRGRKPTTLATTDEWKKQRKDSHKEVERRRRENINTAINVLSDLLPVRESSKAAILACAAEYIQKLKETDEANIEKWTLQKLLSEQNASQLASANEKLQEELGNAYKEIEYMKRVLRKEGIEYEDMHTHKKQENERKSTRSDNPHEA
Technique: protein-binding microarray
Molecule type: double-stranded DNA, one strand shown
Matrix: in vitro
Concentration: 0.8 µM
Notes: whole 60-bp probe, no competitor
Reading: higher = stronger binding
Quantity: fluorescence intensity
GAAGTGGTTAATTTACGCCTGATCACCTTATATTAGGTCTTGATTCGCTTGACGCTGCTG: 596 a.u.
CTAATGTTATAGAGTAACGTGGTATAATTACCATTCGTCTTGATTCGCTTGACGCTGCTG: 896 a.u.
CCTAACTACTATATACACCTGCTATAGCTTCGTACAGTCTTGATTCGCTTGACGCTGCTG: 537 a.u.
CTAACAGTGGAAGGTCACGAACGAGATTACCATTTCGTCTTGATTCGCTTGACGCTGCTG: 610 a.u.
CTATGATAAATTCACCACATGTATCTATATATGTTCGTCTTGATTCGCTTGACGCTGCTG: 758 a.u.

Single results of other studies
PhoQ, residues 284 288 289 292 302 303 NLCILV — fold induction (PhoP, residues 12 14 15 18 19 IFFTR (Escherichia coli, UniProt P23836); Sort-seq, measured: YFP reporter; E. coli; PhoQ-PhoP variant library, with: 10 µM Mg2+; reference: high Mg2+ state, higher = stronger signaling): 2.17

Repeated from above (set 1):
GGGAGUUCUACAGUCCGACGAUCAUCCACAGUCUGAUGGGCAACUUUGAAAACGCUGUGGACUAUUUCCACACAGCUCUUGGUCUCAGGCGAGACGACACAUUUUCUGUUACAAUGCUUGGUCACUGCAUUGAAAUGUACAUCCAACAGAGGAUUGAGCAUCA: 0.138 ratio
